Literature values that unrelated publications cite.
Protocols differ between the studies behind these lines. Values joined by “and” are separate records of one study, mostly repeats; a detail may differ. Numbers after ± are the reported error.
Sequence of UniProt O35627 (whole entry, unmodified, looked up): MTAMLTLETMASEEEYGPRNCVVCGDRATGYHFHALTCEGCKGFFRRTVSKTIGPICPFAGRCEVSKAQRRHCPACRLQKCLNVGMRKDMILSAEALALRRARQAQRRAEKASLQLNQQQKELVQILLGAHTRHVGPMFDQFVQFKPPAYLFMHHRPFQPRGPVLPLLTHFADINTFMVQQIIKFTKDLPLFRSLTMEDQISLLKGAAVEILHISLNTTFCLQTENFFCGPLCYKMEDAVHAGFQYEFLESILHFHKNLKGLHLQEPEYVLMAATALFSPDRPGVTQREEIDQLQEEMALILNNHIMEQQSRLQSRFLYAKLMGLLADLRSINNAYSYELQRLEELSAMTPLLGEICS

CCOC(=O)[C@]1(c2ccccc2)N=C(c2ccccc2)N(Cc2ccccc2)[C@@H]1c1ccccc1  EC50 (NF-κB transcription; reporter gene, inhibitor, luciferase reporter): 2.5 µM
CO[C@@H]1[C@@H]2OP(=O)(O)OC[C@H]2O[C@H]1n1c(Sc2ccc(Cl)cc2)nc2c(N)ncnc21  Km or Ki (PDE1C; cyclic nucleotide hydrolysis, substrate or inhibitor, isothermal titration calorimetry): 44.2 µM
CC[C@H](C)[C@H](NC(=O)[C@H](CCCCN)NC(=O)[C@H](Cc1c[nH]cn1)NC(=O)[C@@H](N)CCCNC(=N)N)C(=O)N[C@@H](CC(C)C)C(=O)N[C@@H](Cc1c[nH]cn1)C(=O)N[C@@H](CCCNC(=N)N)C(=O)N[C@@H](CC(C)C)C(=O)N[C@@H](CC(C)C)C(=O)N[C@@H](CCC(N)=O)C(=O)N[C@@H](CCC(=O)O)C(=O)NCC(=O)N[C@@H](CO)C(=O)O  ΔH (Nuclear receptor subfamily 1 group I member 3, with RXR (Mus musculus, UniProt O35627); binding, isothermal titration calorimetry; pH 7.2, 25°C, with: TCPOBOP, fourfold excess): -10 ± 0.3 kcal/mol
C[C@@]12CC=C3c4ccc(O)cc4CC[C@@H]3[C@H]1CC[C@H]2O  EC50 (oestrogen receptor beta; binding, competition binding): 0.00814 µM
CC(=NNc1c(Cl)cc(Cl)cc1Cl)c1cc(Cl)ccc1O  EC50 (mitofusin; mitochondrial fusion, activator): 4 to 5 µM
COc1ccc(-c2cccc(C(=O)N(C)C)c2)cc1S(=O)(=O)Nc1cccc(NCCNC(=O)c2ccccc2N(C)C)c1  EC50 (orexin receptor 1; luciferase reporter gene, agonist; CHO cells): 2.75 µM
CC(=O)c1cccc(N[C@H]2[C@H](N)[C@@](NC(=O)N(C)C)([C@H](C)O)[C@@](C)(O)[C@@]2(O)COC(=O)c2c(C)cccc2O)c1  GI50 (MCF7 (breast cancer); cell growth; NCI screen data): < 0.01 µM
O=c1c(O)c(-c2ccc(O)cc2)oc2cc(O)cc(O)c12  EC50 (trypsin): 60 µM and 106 µM
C[C@]12CC(O)[C@@H]3c4ccc(O)cc4CC[C@H]3[C@@H]1CCC2=O (stereo partly drawn)  EC50 (oestrogen receptor beta; binding, competition binding): 1.2 µM
O=C(OCc1ccccc1)[C@]1(c2ccccc2)N=C(c2ccccc2)N(Cc2ccccc2)[C@@H]1c1ccccc1  EC50 (NF-κB transcription; reporter gene, inhibitor, luciferase reporter): 3.5 µM
CCCCCC/C=C\CCCCCCCC=O  EC50 (Heliothis virescens OR6 with Orco; ion current, agonist, two-electrode voltage clamp; Xenopus oocytes; holding potential -80 mV): 24.8 µM
Nc1ncnc2c1nc(Br)n2[C@@H]1O[C@@H]2COP(=O)(O)O[C@H]2[C@H]1O  Km or Ki (PDE5; cyclic nucleotide hydrolysis, substrate or inhibitor, isothermal titration calorimetry): 23.4 µM
O=C(O)Cc1ccccc1Nc1c(Cl)cccc1Cl  EC50 (TRPA1; agonist; Xenopus oocytes expressing TRPA1): ~210 µM
COc1cc2c(cc1C13CC4CC(CC(C4)C1)C3)[C@H]1CC[C@]3(C)[C@@H](O)CC[C@H]3[C@@H]1CC2  EC50 (oestrogen receptor alpha; binding, competition binding): > 10 µM
O=C1c2cccc3c2[C@H](CCC3)CN1[C@@H]1CN2CCC1CC2  Vz/F (healthy volunteers, plasma; oral, dose not given, netupitant-palonosetron combination, with: oral contraceptives): 842 L
C[C@H]1O[C@@H](O[C@H]2[C@@H](O)C[C@H](O[C@H]3[C@@H](O)C[C@H](O[C@H]4CC[C@@]5(C)[C@H](CC[C@@H]6[C@@H]5C[C@@H](O)[C@]5(C)[C@@H](C7=CC(=O)OC7)CC[C@]65O)C4)O[C@@H]3C)O[C@@H]2C)C[C@H](O)[C@@H]1O  EC50 (P-glycoprotein; efflux flux, substrate; rat colon; half-maximal flux): 50.6 ± 8.8 µM
Cc1c(O)c(C23CC4CC(CC(C4)C2)C3)cc2c1CC[C@@H]1[C@@H]2CC[C@]2(C)C(=O)CC[C@@H]12  EC50 (oestrogen receptor beta; binding, competition binding): > 10 µM
Cc1ccccc1-c1cc(N2CCN(C)CC2)ncc1N(C)C(=O)C(C)(C)c1cc(C(F)(F)F)cc(C(F)(F)F)c1  Vz/F (patients, plasma; oral, dose not given, netupitant-palonosetron combination, with: cyclophosphamide 500 to 1000 mg/m^2 IV): 2260 L

For quick reference, copied from above:
CC(=O)c1cccc(N[C@H]2[C@H](N)[C@@](NC(=O)N(C)C)([C@H](C)O)[C@@](C)(O)[C@@]2(O)COC(=O)c2c(C)cccc2O)c1  GI50 (MCF7 (breast cancer); cell growth; NCI screen data): < 0.01 µM
Cc1ccccc1-c1cc(N2CCN(C)CC2)ncc1N(C)C(=O)C(C)(C)c1cc(C(F)(F)F)cc(C(F)(F)F)c1  Vz/F (patients, plasma; oral, dose not given, netupitant-palonosetron combination, with: cyclophosphamide 500 to 1000 mg/m^2 IV): 2260 L
